Published values pooled from the literature.
Every numbered part comes from another study and shows a few of its results, in no order. Changes are numbered by the printed parent chain.

Block 1
Target: Hepatocyte nuclear factor 3-alpha (Foxa1, Mus musculus, UniProt P35582, residues 1-468, full length assumed)
Method: EMSA with sequencing
Form: double-stranded DNA, one strand shown
Sample: in vitro
Tested at: 10 and 20 nM
Setting: whole designed probe, mean of two concentrations, ends assumed
Baseline: negative control set to 0
Direction: higher = stronger binding
Constant ends, left off below: GTGAGCGGTGCCCATTGATGGGGAAC … TTTCACTGGGATCGTGGGGAC
Sequence	normalised bound fraction
AGTTTATAGATAGATGGATAAATATTTTTTACATGGAGAAGGCGTAATAGGAAATATCATACTGATTATGAAGTACTTTCAAAACATTGACAATGTAAACAAATATTAATTAATAGGAGACAAGCATATTAAATGAATCCAGTATAATTGGTGTTACACTGGTGCAAAGTATTGAATGTTTGCTTCCCCACCC	0.502 ratio
ATCTTCCCCCTCTTCCTTGCCCCACCAGCTCACCTTCCCGGGTTATTTGCAGATAGGAAAATAAATAAAGCCGGCATTCGTTAACCCTCTTCTGGCGCAAACTGCTGTTTGCTCTGCATGAATCATGGTCCTTACGCGACGCCAGGCTCCGGGAGAGCAAAGCACCGTGTCAGGCGCATGATCCGGGCTCGCC	0.344 ratio
TAACCTGAGAGTATTTTTTGGTCGTACAGGAAGTGTATCACATCTTTGCTTGCAGGTGATTATTTTTCCTAATTTAATTAGGCCCATAAAATGTAAACAAGCAACTGGGGCTCAGTCATTATTAATTTAGAATATAGACTCAAGAGATGCTGGAACTATAAAGGCAGAAGAATGCATTCTTGACATAGGTAAA	0.335 ratio
ATTTGACTGACATTTGACATTACAGGATTCGCCCTGCTGTCATCCCTGTGCTAGGCACAATGTTTGCAACCCTTCCTGTGTTGTTATCTTGCTGTTTACATTGAGTCCCAGATCTGGCTGAAGGGGTAAAAATCCTTTGTTCCATCTGTGTAAACATACATGACCTGATCTCTGCCCACTGACAACATCCAAA	0.457 ratio
TTATGAGCCTTCCCATGTTATGGCTACATAGCTGTGATTATGTAATAAGTGGAGTTACGCTCCTGCGCTCCAAACTCGCTGAGTGTCACAGGATGTTTACCTTGGCCTATGCCTGCCTGGCTGCAGTGCAGGCATATTCCTTACAAATAAACATTTCCTGAGAAACACCTACATGCTGGGCACTCTATTAGGC	0.266 ratio
AGATTACAAGGTCCTAGAAATTTAACATGCAAAATCTGGAGAAGATAGAGAGTAGGGTGGGGTTGTTGAAAGGTTTTTAGTAGGGTTTTCCAAAGTAATCTTAGTCAGGTTATTTTAAAAAATAAAATATAACTTGTTAGCTTGAAAGTAGGAGAAAAAAATTTAAAAAAATAAAATTTCAGTGTTAGATATA	-0.0109 ratio
ATAAAGCTTTTCACCTGACGCAGGATAATAGCGAGTGCATGTGTGCTGGTTTGTTTACTGTGAGTCTCTCAGAGGAAATCATGTGCATCTGTCTGTTTACTTTTCCGTGGAACCTAGAAGGTCACCTCTAAAAATAATCTTGCTCGGTGTTAGAGTTTCTGTGACACAGAGGTACATACCTCACATGCTCTCC	0.48 ratio
CAAAAATTGTTAAATCATTAAAAAATTGTTTGAAAATATACACTTCTTGTTGTAGACCCCCACTGTACACACGACTATAAACATTGTTCCCTATGTAATCTAAAAAAGGAAACATATAATAAGAGATTTGAAAAGTCTGGACATTTCCTTCCCAACAGATATTAAAGGCAACGTCTTTAATCTAAGACATTAT	0.0601 ratio

Block 2
Target: RNA binding protein fox-1 homolog 2, RRM domain, GST-SBP tag (RBFOX2, Homo sapiens, UniProt O43251-10, residues 100-194)
Method: RNA Bind-n-Seq
Form: RNA
Sample: in vitro
Tested at: 365 nM
Setting: natural RNA segment, single round, ends assumed
Baseline: no-protein control
Direction: higher = stronger binding
Constant ends, left off below: GGGAGUUCUACAGUCCGACGAUC … UGGAAUUCUCGGGUGCCAA
Target sequence (chain): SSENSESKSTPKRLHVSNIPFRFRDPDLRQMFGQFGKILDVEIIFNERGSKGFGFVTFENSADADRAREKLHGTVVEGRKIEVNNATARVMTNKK
Sequence	RBNS enrichment (R)
GGUACUAGCUGAGGUUAUUUUAAAAGCAGCAGUGUGCCUACUUUUUGGAGUGUAACCGGGGAGGGAAAUUAUAGCAUGCUUGCAGACAGACCUGCUCUAGCGAGAGCUGA	0.96
UGCAAAACAGGAGCCAGCCUGGGCUCUGUGCCUACCUCAAGGGGAGCUGGGGGUUGGGGGGACUGACCCUCCCCAGGGAGGUCUUACAAGUAGUGUGACCAGUCUUUUGU	0.696
CCCUGGCUCGGAGCCCAGGGCAGAGGCAGCUCAGAGUGGAGGCUCUAGGCAGGUUUGACAAAGGUCAGUAAUACGGUUUCCCCUGGGGUUGACCAGAUGUUCCAAAAUAU	0.697
UUUGAUGUGUUUGUUUUUGUAAGAAAUAUGGAGGAACUGAAUUAUAAAGAAAAUAAAAUCCUUCUGUAAUAAUCAAAUAAAGUACUUCCCAUAAUCAAAACCAAAUUGGU	1.14
AAUCUCUUGCACCACCUAUUCUUACUUCCUGUUCAGCUCCUUUACAGCUUUUAUUUUCAACUGCUUCCCAACUUGGUGGGGCCUCCUUUAAGGAUGAGCCAAUAGUAAGA	0.702
AACCUGCUUGAAAAAGGCAACGUGUUCUUCACAGUGCUCUCCUGUAAGGACAACGCGGCUCAGUCAGCAGCUGGUUAUGGCCCGGGAAGACAGGAUGCAGACAACGCUCA	0.231
ACAUGAUGUUCAUUCUGUAAAUAUACAUGCAGACAGGUCAUGUACUAAUCCUAGUCCUUUUCCUGAGGUAGAUUUUAAACAGUAUUUUUAAAGUCCAAGACAUAGGUUUU	0.39
AUCCACUGAGCACUGUAAUACAUUUGACAGGAUGGCUGCAUGAAACUGUCCAGCAUUUUUCUGUCGUUUCCCCCCCACCCCAAAUCCUUUUUUUCUCUUCUUUUUUAAAA	1.36
UGGAGAACUAUGAGGCCCUCCUGAACCUGGCCGAGCGGCUGGGAGAUGCCAAGCCCCGGGGUCUCACCAAAGCAGACAUAGAGCAGCUCCCGUCGUACCGCUUUAACCCG	0.2
GUCAGGCUGCUGAACCAGCCAACACAUGGGCUACUGCUGGGAAGCCUGGGCUGUUUUUUUUCUUAAACACAUUUUAUAUUACUGAACAACCAAAUCUACCCUCCACGGCC	0.525
CGCAUCCUGAGGCUCUCACUGACCGAGCAGUACGCCCCCUGCCGGGACCCUCGCCAGCGCCACGCGCGCCACGCCCAGGGCCAGGAGCCAGACAAACCCCGGCCUGCGCG	0.485
UUCUGUGUAAAACAAAUUCAUAGGAUCUGAUUUGCUCAGAGUAUUAUUCAAGAAUGUAUUAAUAAGGCAUUGCCCCCUGUUUGCACUCAGGGUUAAUAUGUCAAAUGAAA	0.606

Block 3
Target: CCNB2, cyclin fold, Cln2 fusion (human)
Method: yeast growth competition, sequencing
Sample: yeast
Setting: weak parent motif
Baseline: not given
Direction: higher = stronger binding
Starting sequence: DBF4 docking peptide (human); DDIVSKLVFDFVE; partner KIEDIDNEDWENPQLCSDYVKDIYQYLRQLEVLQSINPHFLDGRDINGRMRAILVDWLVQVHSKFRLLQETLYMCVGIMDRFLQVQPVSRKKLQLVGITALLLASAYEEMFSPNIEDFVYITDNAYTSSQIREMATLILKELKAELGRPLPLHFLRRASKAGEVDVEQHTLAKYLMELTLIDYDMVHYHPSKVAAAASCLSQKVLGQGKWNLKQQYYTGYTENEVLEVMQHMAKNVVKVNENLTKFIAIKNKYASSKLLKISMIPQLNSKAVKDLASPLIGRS
Variant	normalised enrichment score
ADIVSKLVFDFVE [D1A]	-0.0231
DDIASKLVFDFVE [V4A]	0.0655
DDIVSALVFDFVE [K6A]	-0.415
DDIVSKLAFDFVE [V8A]	-0.423
DDIVSKLVFDFAE [V12A]	-0.231
DDIVSKLVFDAVE [F11A]	0.261
DDIVAKLVFDFVE [S5A]	0.724

Block 4
Target: Histone acetyltransferase KAT6A, winged helix 2, GST fusion (KAT6A, Homo sapiens, UniProt Q92794, residues 85-181)
Method: protein binding microarray
Form: double-stranded DNA, one strand shown
Sample: in vitro
Tested at: not given
Setting: 8-mer, flanks averaged, mean of 2 arrays, mostly near background
Baseline: not given
Direction: higher = stronger binding
Residues (chain): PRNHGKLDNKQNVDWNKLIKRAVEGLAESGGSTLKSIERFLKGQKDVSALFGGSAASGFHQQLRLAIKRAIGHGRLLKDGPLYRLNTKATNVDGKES
Sequence	E-score
GCGGCGTA	0.00696
GGCGTATA	0.0499
AGGGTATG	0.0457
GCTCATGA	0.0544
GCCCTGCC	0.106
ACTAGCAT	-0.0326
GAACGTAA	-0.142
AGCGACTG	0.0532
ACGAAGGC	0.102
GCATTCGC	0.0337
AGAGATCA	0.026
AGGGTACC	-0.161
AGCCATTA	0.0278
AAGCGCCT	-0.0592
AACTCAGG	0.0869
CTCCTCGA	-0.0632
CGCTTTTA	0.0645
CGGTGTCC	0.189
GCGATCCC	0.00394
ATGGGACA	-0.168
TAATAGGA	-0.0664
TATACTCA	0.0184
CATGGAGC	0.0181
CAAAACAG	-0.0254
CGCCGTAA	0.0331

Block 5
Target: TAR DNA-binding protein 43, full length, His tag (TARDBP, Homo sapiens, UniProt Q13148, residues 1-414)
Method: RNA Bind-n-Seq
Form: RNA
Sample: in vitro
Tested at: 20 nM
Setting: 6-mer, flanks averaged, single round
Added: 150 mM KCl
Baseline: input library
Direction: higher = stronger binding
Sequence	6-mer enrichment (R)
UUGUCA	0.609
CUCUAU	0.56
GCAGUA	0.889
CCUCCU	0.575
GUUAGG	1.5
GGCGGC	3.44
GAGGAG	3.95
AAGCCG	0.837
GUCCAC	0.69
UCGCAU	0.611
CGUUUU	0.613
GGGUGA	3.55
ACUGGC	0.836
ACAGGC	0.92

Block 6
Target: PABPC1L2, full length, GST fusion (mouse, UniProt A0ABA7IW68)
Method: RNAcompete
Form: RNA
Sample: in vitro
Tested at: 20 nM
Setting: 7-mer, probes averaged, single round
Baseline: mean of 7-mers
Direction: higher = stronger binding
Target sequence (chain): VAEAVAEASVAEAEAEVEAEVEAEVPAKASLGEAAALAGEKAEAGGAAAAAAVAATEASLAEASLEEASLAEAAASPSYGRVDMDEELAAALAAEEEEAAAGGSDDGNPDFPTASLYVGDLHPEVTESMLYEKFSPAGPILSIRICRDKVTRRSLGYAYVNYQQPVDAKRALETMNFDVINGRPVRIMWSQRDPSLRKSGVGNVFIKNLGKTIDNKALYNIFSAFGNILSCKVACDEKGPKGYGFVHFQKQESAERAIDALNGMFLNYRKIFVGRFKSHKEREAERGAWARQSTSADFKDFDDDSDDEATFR
Sequence	7-mer Z-score
UGUGCAG	-0.171
UAUGUAU	-0.291
UGCCACA	0.0243
ACUGUUC	-0.311
UAACCUG	-0.101
CGUUCAG	-0.304
UAGCGGC	-0.0409
GUUUACU	-0.342
AUGAUAG	-0.0482
CUCCGGU	-0.202
AGGUACC	-0.278
GGUGCAC	-0.00833
CCCUUGA	-0.266
CAAGUAU	-0.0428
GAUCCGA	-0.208
UAACACG	-0.13
AGAGUGA	-0.224
CGAGUAC	-0.122
UCUCAUC	-0.389

Block 7
Target: ABI1, truncated, D143A, DHFR fusion (Arabidopsis thaliana)
Method: DHFR PCA, deep sequencing
Sample: yeast
Setting: methotrexate growth selection, single substitutions
Added: (+)-ABA 17 µM
Baseline: wild-type fitted maximum
Direction: higher = stronger binding
Starting sequence: PYL1, truncated, DHFR fusion (Arabidopsis thaliana); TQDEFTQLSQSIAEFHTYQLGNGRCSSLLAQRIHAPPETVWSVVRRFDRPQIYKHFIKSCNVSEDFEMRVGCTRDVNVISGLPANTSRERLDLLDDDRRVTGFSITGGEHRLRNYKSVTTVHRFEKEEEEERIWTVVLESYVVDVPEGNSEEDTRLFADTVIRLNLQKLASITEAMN
Variant	relative binding score [%]
R88C	82.2
T101E	-2.86
V137R	-9.78
E127G	92.9
R24L	66.3
L164Q	88.7
F103N	-19.2
R90E	41.4
E4I	81.3
R32F	65.8
I52G	59.8
L28W	45.6
D153P	-4.03
R32M	78.6
S9N	71.4
A170Q	79.4
T135D	3.63
N22A	88
M176W	79.6
K116S	91.2
T6M	84.6
N149T	53.6
L112I	8.97
N114C	17.5
D65M	62.1

Block 8
Target: Hepatocyte nuclear factor 3-beta, forkhead domain (FOXA2, Homo sapiens, UniProt Q9Y261, residues 142-269)
Method: protein-binding microarray
Form: double-stranded DNA, one strand shown
Sample: in vitro
Tested at: not given
Setting: k-mer, scored over probes, only values ≥0.25
Direction: higher = stronger binding
Construct (chain): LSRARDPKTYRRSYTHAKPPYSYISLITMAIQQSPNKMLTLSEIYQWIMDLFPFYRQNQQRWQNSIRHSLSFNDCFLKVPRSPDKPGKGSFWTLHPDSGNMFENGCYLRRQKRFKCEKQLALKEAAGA
Sequence	E-score
CATAAGAA	0.268
GTTTACAA	0.252
TATTCCGA	0.275
ATTATATC	0.289
ATAGATAA	0.297
CCATATAA	0.25
ATTGTTGA	0.354
AAGTCATA	0.292
AACTTATT	0.267
CATTATCA	0.291
AATATACT	0.253
TATAGATA	0.311
ATGGTCAA	0.255
AATGTGAA	0.309
AAGTAAAT	0.342

Some of these lines once more (block 8):
Sequence	E-score
CCATATAA	0.25
ATTGTTGA	0.354
AAGTCATA	0.292
AACTTATT	0.267
CATTATCA	0.291
AATATACT	0.253
TATAGATA	0.311
ATGGTCAA	0.255
